Published values from different studies.
Numbered parts are unrelated; each lists some results of a single study. Changes are numbered by the printed parent chain.

Set 1 — method: RNA Bind-n-Seq; molecule type: RNA; medium: in vitro; tested at: 365 nM; relative to: no-protein control; reading: higher = stronger binding; endpoint: RBNS enrichment (R)
Target: RNA binding protein fox-1 homolog 2, RRM domain, GST-SBP tag (RBFOX2, Homo sapiens, UniProt O43251-10, residues 100-194)
Setting: natural RNA segment, single round, ends assumed
Residues (chain): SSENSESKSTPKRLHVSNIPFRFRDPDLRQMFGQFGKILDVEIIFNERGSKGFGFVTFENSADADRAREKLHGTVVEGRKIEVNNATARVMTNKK
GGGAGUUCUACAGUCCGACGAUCUUUAUCGUUCCAAGCUUCAUCUUAGCUUCAGAACAAACUGUUAAAUCAUGAUUUUGCAGAACCUUUGGUUUGGACAGUUCUGUUCUUUUGGAUUUGGAAUAGAUUACAUAUGGAAUUCUCGGGUGCCAA: 0.484
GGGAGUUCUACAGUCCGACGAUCUGUUCUUGCCAUUUGCCAGCCUAAUGCGCAUGCUUUCUGCCUCUGGUAACAGGAGUGAGUGAGCCCCUCAGACCUGCACUCUGGGUGUCUCCUGCUUUCAAAGGUUCUUAUGGAAUUCUCGGGUGCCAA: 2.62
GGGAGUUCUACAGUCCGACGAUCACACCUGAGUGCAUUUAAGUAUUUAGAGUAUAAGUUUCAUGCAUAGAAAGUUAACCCUAUUAAUUUCAGUAUCAAACAUUGUUACAGUCAAAGACAAGGAAGACCAAACCUGGAAUUCUCGGGUGCCAA: 0.274
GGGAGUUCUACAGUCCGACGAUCACCUGCACAUCACUGCACAGACCUGAUUUGUGUCCCAGUGGACUUGUCCAAUGGAUGAAGUUGAUUCAUAUUGCAUCAUAGUGUGUCAUAUUUAAGCUCACAUUAGAGUUUGGAAUUCUCGGGUGCCAA: 0.639
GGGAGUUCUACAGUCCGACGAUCCUUUGUGGCUGUUUCUGUUUUUUACUGUAUGUAACUGGUAGCUGAUUGUACUAGGAUUAAAAACAAUAAACUUUCAUGAUAAAGCCGAUGAGAUUCAUGGGCUAUACAGCUGGAAUUCUCGGGUGCCAA: 0.791
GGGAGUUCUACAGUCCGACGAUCCUUCCCGUGGCGCCGAUCCUCUGACUCUAUAGCGCCAGCUUGGACAGAUUGAGGUCUCUGUGGCUUUGGUGACCCUGCUUAAGCAUUCCCACCGUGUCCCUGUUCUGCGCUGGAAUUCUCGGGUGCCAA: 0.372
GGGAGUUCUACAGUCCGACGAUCUCUGUAAAAUUUGUUUAGAAGUACGUUUUUGCAUUAUUCAUAUGCUUCCCAGAGAAGCUCAUUUAGUUAGAAAAUAAGGCAAGUUUUGAAGCCUGCUAAAUGAAGAGACUUGGAAUUCUCGGGUGCCAA: 1.78
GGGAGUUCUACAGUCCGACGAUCUAUUUAAUUUUUAAGAAGCCUAUUUUACUAGUGUUUUGUAUGAAGAAAAAUACUGCAGAAGUUAAACCUGUGAUGUGUUUUUUUGAGCUGUUUUGUUUUAAGGUAACUACUGGAAUUCUCGGGUGCCAA: 0.689

Set 2 — method: RNA Bind-n-Seq; molecule type: RNA; medium: in vitro; tested at: 20 nM; setting: 6-mer, flanks averaged, single round; with: 150 mM KCl; relative to: input library; reading: higher = stronger binding; endpoint: 6-mer enrichment (R)
Target: TAR DNA-binding protein 43, full length, His tag (TARDBP, Homo sapiens, UniProt Q13148, residues 1-414)
AUUGAA: 0.663
ACACUC: 0.606
AUUGCA: 0.629
CUGUUA: 0.615
UGACUG: 0.898
AGUACA: 0.657
ACAGGU: 0.868
UGCUAU: 0.634
GCGCCG: 1.39
UGGCCA: 0.897
GAGGGU: 4.45
CAGUCA: 0.622
AUCCUG: 0.611
CGGAUG: 1.36
CUUUUU: 0.774
CUUCUG: 0.588
AUAACA: 0.925
GACGAU: 0.824
AAGCGA: 0.799
AGGUCA: 0.796
UACGCA: 0.672
AUCCGC: 0.624
UUUUGC: 0.698
AAACCA: 0.618
GUAAGA: 0.933

Set 3 — target: CCNA2, cyclin fold, Cln2 fusion (human); method: yeast growth competition, sequencing; medium: yeast; setting: weak parent motif; relative to: not given; reading: higher = stronger binding; endpoint: normalised enrichment score
Starting sequence: MASTL docking peptide (human); PMIAKNLMCELDE
PMIAKNKMCELDE [L7K]: -0.0683
PMIARNLMCELDE [K5R]: 0.619
PMIAINLMCELDE [K5I]: -0.0898
PMIAKNLMIELDE [C9I]: -0.206
PMIAKNLMTELDE [C9T]: -0.107
PMIVKNLMCELDE [A4V]: 0.268
PMIAKNLYCELDE [M8Y]: -0.252
PMIAKNLMCRLDE [E10R]: 0.462
PMIAKELMCELDE [N6E]: -0.35
PMILKNLMCELDE [A4L]: 0.0413
PMIAKNLSCELDE [M8S]: 0.0828
PMIAKNLMCMLDE [E10M]: 0.0997
PMIAFNLMCELDE [K5F]: -0.265
PMIAKNEMCELDE [L7E]: -0.231
PMIAKNLMCELKE [D12K]: 0.242
PMIAKNLMCELHE [D12H]: 0.276
PMIAKNTMCELDE [L7T]: -0.32
PMMAKNLMCELDE [I3M]: -0.362
PMIAKNLMCEEDE [L11E]: 0.061
PMIAPNLMCELDE [K5P]: -0.686
PMITKNLMCELDE [A4T]: -0.0827
PMIAKNAMCELDE [L7A]: 0.0879
PMIAKNLACELDE [M8A]: -0.235
PMWAKNLMCELDE [I3W]: -0.156
PMGAKNLMCELDE [I3G]: -0.0165

Set 4 — method: RNA Bind-n-Seq; molecule type: RNA; medium: in vitro; tested at: 1 µM; setting: whole 134-nt RNA, ends assumed; with: 150 mM KCl; relative to: input library; reading: higher = stronger binding; endpoint: log2 enrichment
Target: Ras GTPase-activating protein-binding protein 1, C-terminal RGG region (G3BP1, Homo sapiens, UniProt Q13283)
Chain of UniProt Q13283 (whole entry, looked up): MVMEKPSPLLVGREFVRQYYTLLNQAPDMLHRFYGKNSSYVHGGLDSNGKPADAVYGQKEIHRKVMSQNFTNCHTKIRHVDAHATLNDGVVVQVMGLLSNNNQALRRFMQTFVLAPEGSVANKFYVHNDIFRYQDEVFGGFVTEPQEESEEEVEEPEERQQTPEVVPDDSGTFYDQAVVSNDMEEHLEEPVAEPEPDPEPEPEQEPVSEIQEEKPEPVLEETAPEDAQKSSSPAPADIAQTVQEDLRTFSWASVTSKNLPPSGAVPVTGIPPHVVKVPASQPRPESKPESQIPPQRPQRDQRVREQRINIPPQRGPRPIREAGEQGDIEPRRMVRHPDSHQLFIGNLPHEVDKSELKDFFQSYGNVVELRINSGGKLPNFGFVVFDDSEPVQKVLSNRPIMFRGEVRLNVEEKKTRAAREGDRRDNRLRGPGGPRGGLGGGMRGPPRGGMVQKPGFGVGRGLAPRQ
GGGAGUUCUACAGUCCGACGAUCCCUCAAGUCCUGUGCUACACAUCGUAUGUACCGAAUCGGUGGGGUGGGUGGGGAAAGUAUUAUGUUACGCCGUUCGGAUCUGCACUUCCAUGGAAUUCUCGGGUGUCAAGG: 0.991
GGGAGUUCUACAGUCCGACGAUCUUGGACUUGGAGCAUCUGCUCAGUGAGUCUCCAGAAGGAAGUCCCUUCCGAGAUAUGGAUGAUGGAAGUGAUUCCCUUGGGGUGGGAUUGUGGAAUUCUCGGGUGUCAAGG: -1.53
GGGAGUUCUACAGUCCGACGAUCCACAGACAACACAAACCCACACAGACACAGAGGGAAGGGGUUGGGAUGGGGACAGGGUGCACAGCAGGGCGGGGUAGGACCCCAGCCCCUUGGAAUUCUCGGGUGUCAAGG: -0.386
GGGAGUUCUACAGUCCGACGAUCGCAGGAAGUAAAAACAAAUGGAAAUGCUUAAAAUAGUGGCAGGGGUGGGGGUUGCUAAGGAAAGGGUGGGAUGGGAGUGGGUAAAGAGUUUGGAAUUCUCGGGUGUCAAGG: 2.37
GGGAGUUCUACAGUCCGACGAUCCCUCAAGUCCUGUGCUACACAUCGUAUGUACCGAAUCGGUUGGUUGGUUGGGAAAGUAUUAUGUUACGCCGUUCGGAUCUGCACUUCCAGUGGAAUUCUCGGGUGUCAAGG: -0.579
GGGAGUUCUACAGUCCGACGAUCCAAGUCCUGUGCUACACAUCGUAUGUACCGAAUCGGGAAAAAGGGUGGGAAAGGGAAAGUAUUAUGUUACGCCGUUCGGAUCUGCACUUCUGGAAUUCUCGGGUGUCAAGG: 1.55
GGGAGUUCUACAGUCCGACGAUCACCAUGCAGGUGGGAAUCUUUGGGAAGUGGGGCAAGGGGGGGAUAGGGAGGGGGGUAACACUUUGGGAACAGGUGGUCCCAGGUCGUUUCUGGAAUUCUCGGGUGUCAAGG: -1.48
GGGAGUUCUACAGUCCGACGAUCUCCUCAAGUCCUGUGCUACACAUCGUAUGUACCGAAUCGGCGGGGCGGGCGGAAAGUAUUAUGUUACGCCGUUCGGAUCUGCACUUCCAGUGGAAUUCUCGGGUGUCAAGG: -0.437
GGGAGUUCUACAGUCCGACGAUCCACAGACAACACGCACCCACACAGACACAGAGGGAAGGGGUUGGGAUGCGGACAGGGUGCACAGCAGGGCGGGGUAGGACCCCAGCCCCUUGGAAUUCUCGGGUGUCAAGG: 0.33

Set 5 — method: protein binding microarray; molecule type: double-stranded DNA, one strand shown; medium: in vitro; tested at: not given; relative to: not given; reading: higher = stronger binding; endpoint: E-score
Target: Histone acetyltransferase KAT6A, winged helix 2, GST fusion (KAT6A, Homo sapiens, UniProt Q92794, residues 85-181)
Setting: 8-mer, flanks averaged, mean of 2 arrays, mostly near background
Target sequence (chain): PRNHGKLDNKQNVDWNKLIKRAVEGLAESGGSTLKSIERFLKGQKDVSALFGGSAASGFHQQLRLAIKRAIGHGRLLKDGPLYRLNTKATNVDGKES
GCAATAGC: -0.0284
CTATTAGC: 0.0536
AAATACCC: -0.024
ATGGCCAT: -0.301
CAAAACGG: 0.101
CATCTCAA: -0.184
CGGAGACG: 0.209
CTTAATCC: -0.2
ATCACACC: 0.057
ACAGAGAG: -0.0373
GTCATAAC: -0.206
AGGCTTGC: -0.107
CTAGAGTC: -0.133
CAAGCAGA: 0.163
AAACCACA: -0.142
ACGCTCCC: -0.0272
CTCTTGGA: 0.179
ACGAGACG: -0.116
CGTTTATC: -0.0162

For quick reference, copied from above (set 2):
CGGAUG: 1.36
UACGCA: 0.672
AUAACA: 0.925
UGACUG: 0.898
AUCCGC: 0.624
UUUUGC: 0.698
CUUUUU: 0.774
AAGCGA: 0.799
AAACCA: 0.618
UGCUAU: 0.634
AGUACA: 0.657
